{"data": "Experimental data collected from several papers", "note": "Parts stem from different laboratories: compare values within a part only."}
{"data": "Study 1", "target": "Centromere-binding protein 1, full length, His-tagged (CBF1, Saccharomyces cerevisiae, UniProt P17106, residues 1-351)", "method": "competition protein-binding microarray", "form": "double-stranded DNA, one strand shown", "matrix": "in vitro", "concentration": "2 µM", "setting": "whole 60-bp probe, lowest competitor level", "added": "Pho4 competitor, 0.05 µM", "reading": "higher = stronger binding", "shared flanks, not repeated": "… GTCTTGATTCGCTTGACGCTGCTG", "chain of UniProt P17106 (whole entry, looked up)": "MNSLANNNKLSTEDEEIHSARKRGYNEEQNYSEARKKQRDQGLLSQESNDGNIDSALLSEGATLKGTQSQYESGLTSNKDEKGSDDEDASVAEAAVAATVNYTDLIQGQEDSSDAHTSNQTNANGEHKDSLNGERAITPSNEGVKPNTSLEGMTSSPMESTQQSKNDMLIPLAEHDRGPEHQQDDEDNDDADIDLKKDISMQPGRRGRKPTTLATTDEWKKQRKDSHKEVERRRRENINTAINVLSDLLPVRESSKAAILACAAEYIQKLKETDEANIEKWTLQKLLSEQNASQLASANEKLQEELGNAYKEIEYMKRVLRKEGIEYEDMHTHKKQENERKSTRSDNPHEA"}
{"Sequence": "ATACTTTCATCACATCAGGTGGTTTAGGTACGATGG", "fluorescence intensity [a.u.]": 302}
{"Sequence": "CATACCCAACCTTTTCACGTGGGCTAAGATATTTGT", "fluorescence intensity [a.u.]": 996}
{"Sequence": "TGCGCAACAACTTGACCAGTGGGTGTATGTCTAGAA", "fluorescence intensity [a.u.]": 64.7}
{"Sequence": "ACCAAAGGGTTCTTGCGGGTGTAGATCCCAAGTCCA", "fluorescence intensity [a.u.]": 62.2}
{"Sequence": "CCTATTTTTCTTTTTTACGTGCTAAGGACGAAAAGT", "fluorescence intensity [a.u.]": 90.4}
{"Sequence": "TTCCAAATCCTTCTCCTCGTGGACCCCTTGGGCGAT", "fluorescence intensity [a.u.]": 64.3}
{"Sequence": "TTTTTGCAGATCCCAATATTTCTACAGCCTTTGGGA", "fluorescence intensity [a.u.]": 74.4}
{"Sequence": "CAATCTCTTGAAGGCCATGTGTAGTGCAACCGGCTT", "fluorescence intensity [a.u.]": 81.2}
{"data": "Study 2", "target": "Sal-like protein 4, full length isoform A (SALL4, Homo sapiens, UniProt Q9UJQ4, residues 1-1053)", "method": "universal PBM", "form": "double-stranded DNA, one strand shown", "matrix": "in vitro", "concentration": "600 nM", "setting": "8-mer, flanks averaged, mean of replicates", "reading": "higher = stronger binding", "chain of UniProt Q9UJQ4 (whole entry, looked up)": "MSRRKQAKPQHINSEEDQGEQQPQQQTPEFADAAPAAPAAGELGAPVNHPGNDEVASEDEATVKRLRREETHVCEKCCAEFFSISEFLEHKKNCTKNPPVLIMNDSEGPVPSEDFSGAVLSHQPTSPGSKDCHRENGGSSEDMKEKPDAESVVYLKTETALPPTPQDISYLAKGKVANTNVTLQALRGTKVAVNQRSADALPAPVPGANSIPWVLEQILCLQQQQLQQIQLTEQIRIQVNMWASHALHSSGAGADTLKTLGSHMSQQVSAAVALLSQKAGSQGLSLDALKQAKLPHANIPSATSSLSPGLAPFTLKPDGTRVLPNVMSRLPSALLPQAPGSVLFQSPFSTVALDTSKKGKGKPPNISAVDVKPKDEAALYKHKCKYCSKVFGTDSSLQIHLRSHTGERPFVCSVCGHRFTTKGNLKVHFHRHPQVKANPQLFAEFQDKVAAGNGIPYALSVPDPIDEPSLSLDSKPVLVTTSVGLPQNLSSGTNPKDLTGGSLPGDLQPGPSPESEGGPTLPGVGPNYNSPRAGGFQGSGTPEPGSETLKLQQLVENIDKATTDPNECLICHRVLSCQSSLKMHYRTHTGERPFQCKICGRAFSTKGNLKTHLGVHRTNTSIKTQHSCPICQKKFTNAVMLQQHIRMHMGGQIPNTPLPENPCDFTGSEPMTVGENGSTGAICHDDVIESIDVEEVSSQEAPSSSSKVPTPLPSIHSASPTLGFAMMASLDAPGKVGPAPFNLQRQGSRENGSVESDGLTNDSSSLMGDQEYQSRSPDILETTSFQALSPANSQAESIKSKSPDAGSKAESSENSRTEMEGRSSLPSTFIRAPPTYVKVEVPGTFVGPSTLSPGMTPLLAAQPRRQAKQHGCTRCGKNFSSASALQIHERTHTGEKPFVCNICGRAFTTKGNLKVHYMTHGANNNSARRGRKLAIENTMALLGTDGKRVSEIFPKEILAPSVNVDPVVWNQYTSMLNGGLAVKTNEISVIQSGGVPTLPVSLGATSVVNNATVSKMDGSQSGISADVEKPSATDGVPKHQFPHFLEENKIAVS"}
{"Sequence": "ACGATAGA", "E-score": 0.059}
{"Sequence": "ACGCGTTC", "E-score": -0.0829}
{"Sequence": "GCCCTGGA", "E-score": -0.338}
{"Sequence": "ATTAGTTG", "E-score": 0.263}
{"Sequence": "CACCATAA", "E-score": 0.265}
{"Sequence": "GTGGGGTA", "E-score": -0.0633}
{"Sequence": "AGAAACAC", "E-score": 0.13}
{"Sequence": "AGGCTCAA", "E-score": -0.034}
{"Sequence": "GAAGTTAC", "E-score": 0.0607}
{"Sequence": "AAATCACT", "E-score": 0.209}
{"data": "Study 3", "target": "Histone acetyltransferase KAT6A, winged helix 1, GST fusion (KAT6A, Homo sapiens, UniProt Q92794, residues 1-85)", "method": "protein binding microarray", "form": "double-stranded DNA, one strand shown", "matrix": "in vitro", "concentration": "not given", "setting": "8-mer, flanks averaged, mean of 2 arrays, mostly near background", "relative to": "not given", "reading": "higher = stronger binding", "Construct (chain)": "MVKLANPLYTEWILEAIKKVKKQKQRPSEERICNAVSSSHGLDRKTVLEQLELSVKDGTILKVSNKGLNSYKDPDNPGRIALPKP"}
{"Sequence": "CAGCTTAG", "E-score": -0.0948}
{"Sequence": "AAGGCATT", "E-score": -0.218}
{"Sequence": "TGCTAAAA", "E-score": -0.142}
{"Sequence": "CACGACTA", "E-score": -0.162}
{"Sequence": "AAATGCAA", "E-score": -0.238}
{"Sequence": "GTGACCAA", "E-score": -0.112}
{"Sequence": "CACATGTG", "E-score": 0.0641}
{"Sequence": "AGGCTAAC", "E-score": -0.109}
{"Sequence": "ACGACCGA", "E-score": -0.0985}
{"data": "Single results of other studies"}
{"Molecule": "PhoQ, residues 284 288 289 292 302 303 SLSVQF", "target": "PhoP, residues 12 14 15 18 19 NQFFI (Escherichia coli, UniProt P23836)", "test": "Sort-seq, refers to: YFP reporter", "system": "E. coli", "conditions": "PhoQ-PhoP variant library, added: 10 µM Mg2+", "scale": "relative to: high Mg2+ state, higher = stronger signaling", "quantity": "fold induction", "value": 13.7}
